Measurements collected from several papers.
A part holds a random share of what one study measured. Positions count from the first letter of the parent shown.

Series 1
Target: RNA binding protein fox-1 homolog 2, RRM domain, GST-SBP tag (RBFOX2, Homo sapiens, UniProt O43251-10, residues 100-194)
Technique: RNA Bind-n-Seq
Form: RNA
Sample: in vitro
Tested at: 365 nM
Setting: natural RNA segment, single round, ends assumed
Reference: no-protein control
Reading: higher = stronger binding
Shared flanks, not repeated: GGGAGUUCUACAGUCCGACGAUC … UGGAAUUCUCGGGUGCCAA
For `AAGCCCUGCCUCUGGGCAACUCGCUCAACUCUUGUCCACUAUUAGCUGUGGGCAGUGGAGGCAGAUAGCACUUCUGAGGGAGACUCAUUAAAGCAUUGGCUUUGCUACCA`, “RBNS enrichment (R)” read 0.392.
For `CUCUCUCUCACACGCCUCUCUCCAAUAGACAGCUUGUAUUUGCAGUAUUUCAUAUUUAUAAAUAUGCGUUUAUUUAAAAGGAGAACAAAAGCUUGACUCUGAUUCACAGU`, “RBNS enrichment (R)” read 0.382.
For `GCUAUAGCUCUCAAGUGCUCUAGAGGCAGUUGGAAAGGAAGGAAUGCAUGCUUAUGUGAGCAGCUGGACUCCCGCUCAGUACAGGCCUGGAACCCCAGGCCAAAUGUAUG`, “RBNS enrichment (R)” read 0.639.
Under “RBNS enrichment (R)”, `UUAUUCUGACUCGCAUUGUUUGCCAACAGAAAAUAUUUUAUACUUUUGUUAUUAAAGCAUCCAGGGCAAUUUAAUAUUUGUUCCUAGAUGUAACUCAUUUGAAUAGGUUU` is recorded as 0.679.
`AAUAAUUAUUAAGCUGUGUGAUAAUUUCUGCUUUCAGGACACUCAUCCAUUAUCUUGGCUGUGAGCUCCUUGGGUACGGGUACCUUGUAUGUUUACUUUUAUAUCCCUAG` — result for “RBNS enrichment (R)”: 2.66.
`UGGUCUGGAACAUUAGUUUUUUUAAGGCAACUGUGGCCAAUAUUUAUAUCAUGACAUACAAAUGGAUUUACGUAUUUGACUGAAAUGAAAGUUCCACUAAACGGUAUUUG` — result for “RBNS enrichment (R)”: 0.482.
`UUUUGUACAGCUUUGUAAAUUCUUAACAUUUUUAUAUUGCCAUGUUUAUUUUGUUUGGGUAAUUUGGUUCAUUAAGUACAUAGCUAAGGUAAUGAACAUCUUUUUCAGUA` — result for “RBNS enrichment (R)”: 1.29.
`GCGUGAGGAUGGUGGACAGGUAGAAGUUCCAGCCCAGGCAGAUGUGGACAAACAGGGCUCCUGCGUACAGGUCAAUCUAGGGAAAGCAGAGUUGGGCAGAAGUCAGACAU`: “RBNS enrichment (R)” 0.731.
`GUAGGAAAUGAGUGACAUCAAGUCAGUUUGCCUAGAAAUCCCAUGUCUUCCUGGAAACCUAAAGGGAAACAUGAUCUUGUCCUGAAAAUGAUAUUUUAGAGUCUGAGUGA` — result for “RBNS enrichment (R)”: 0.522.

Series 2
Target: ABI1, truncated, D143A, DHFR fusion (Arabidopsis thaliana)
Technique: DHFR PCA, deep sequencing
Sample: yeast
Setting: methotrexate growth selection, single substitutions
Together with: (+)-ABA 17 µM
Reference: wild-type fitted maximum
Reading: higher = stronger binding
Starting sequence: PYL1, truncated, DHFR fusion (Arabidopsis thaliana); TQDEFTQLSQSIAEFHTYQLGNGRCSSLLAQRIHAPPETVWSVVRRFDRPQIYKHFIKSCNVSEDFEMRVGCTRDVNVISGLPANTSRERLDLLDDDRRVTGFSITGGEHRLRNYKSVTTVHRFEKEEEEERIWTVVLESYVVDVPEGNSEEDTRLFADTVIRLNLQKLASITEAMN; partner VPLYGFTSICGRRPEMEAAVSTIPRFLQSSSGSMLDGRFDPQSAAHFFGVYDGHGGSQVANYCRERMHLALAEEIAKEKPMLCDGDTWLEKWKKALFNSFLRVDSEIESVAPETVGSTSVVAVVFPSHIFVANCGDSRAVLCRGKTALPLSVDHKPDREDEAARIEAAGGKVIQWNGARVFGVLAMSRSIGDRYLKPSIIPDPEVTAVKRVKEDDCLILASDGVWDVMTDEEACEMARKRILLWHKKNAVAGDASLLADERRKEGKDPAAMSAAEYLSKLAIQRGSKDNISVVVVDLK
`I172E` — result for “relative binding score”: 32.9%.
`V43Q`: “relative binding score” 31.2%.
`N165G`: “relative binding score” -1.5%.
`G102E` — result for “relative binding score”: -1.94%.
Under “relative binding score”, `I57A` is recorded as 12.9%.
`E109V`: “relative binding score” 66%.
`Y18L`: “relative binding score” 45.6%.
`K168W`: “relative binding score” 77.9%.
`Q2P`: “relative binding score” 83.9%.

Other studies, line by line
`LLKRLQDVVSERA` has an enrichment score of -1.04 (Saccharomyces cerevisiae; peptide binding, yeast competitive growth sequencing; peptide, cyclin E2-Cln2 fusion; library 2; direction not given).
`PhoQ, residues 284 288 289 292 302 303 SNGLAW` has a fold induction of 11.8 (PhoP, residues 12 14 15 18 19 LHHSG (Escherichia coli, UniProt P23836); Sort-seq, measured: YFP reporter; E. coli; PhoQ-PhoP variant library, together with: 10 µM Mg2+; reference: high Mg2+ state, higher = stronger signaling).
`ASPLKKLFTSTGL` gave an enrichment score of -0.953 (Cln2 (Saccharomyces cerevisiae); peptide binding, competitive growth sequencing; peptide, Saccharomyces cerevisiae, unfused Cln2 strain; mutational scanning library 1; direction not given).

Some of these lines once more (series 2):
`Y18L`: “relative binding score” 45.6%.
